Measurements gathered from unrelated publications.
± gives the spread as reported.

SMILES	target or system	assay	system	setting	scale	endpoint	result
CC(C)OC(=O)[C@H](CO)NCc1cc(Cl)c(OCc2cccc(-c3ccccc3)c2Br)cc1OCc1cccnc1	MC-38	cell growth or viability, MTT				IC50	> 10000 nM
CC(C)c1ccc(N(C)c2ccc3c(c2)OCC[C@H]3CNc2cnccc2C(=O)O)cc1	NCI-H1563	cell growth or viability, ATP luminescence		7 days		IC50	≥ 10000 nM
C[n+]1ccc(/C=N/NC(=O)C(=O)N/N=C/c2cc[n+](C)cc2)cc1	myc22 MYC G4-DNA parallel	FRET melting		1 µM, K1 buffer, DNA 0.2 µM		ΔTm	3.6 ± 0.3 °C
CC1(C)CC(=O)C2=C(C1)Oc1ccccc1C2Sc1ccccc1 (stereo not shown)	3T3-L1 pre-adipocytes	cell viability, MTT		72 h		IC50	59.7 ± 3.01 µg/mL
Cc1ncsc1-c1ccc(C(C)NC(=O)C2CC(O)CN2C(=O)C(NC(=O)CCCCCCCCCCN2CCCC(Nc3ncc(Cl)c(Nc4ccccc4S(=O)(=O)C(C)C)n3)C2)C(C)(C)C)cc1 (stereo not shown)	22Rv1	RNA-seq, measured: MZF1-AS1		concentration not given	baseline: DMSO	log2 fold change	-1.2
COc1cc(-n2cc3cc(F)cc(C(N)=O)c3n2)cc(Cl)c1C1CC(O)(CCO)Cc2ccccc21 (stereo not shown)	SNU1	cell growth or viability, MTT		72 h		IC50	110 nM
CN1CCCNC(=O)c2cccc(c2)C(=O)NCCCN(C)CCCNc2cccc3c2C(=O)c2cccc(c2C3=O)NCCC1	SAS	RNA-Seq, measured: CEP19 mRNA		1 µM, 6 h	baseline: untreated cells	log2 fold change	1.53
COC1CN([C@H]2CC[C@H]([C@@]3(C)Oc4c(Cl)cc(C(=O)NCc5c(SC)cc(C)[nH]c5=O)c(C)c4O3)CC2)C1		RNA-seq, measured: SERINC2	human, whole blood	dose not given, 24 h	baseline: pretreatment baseline	log2 fold change	2.7
O=C(NC1(O)C(=O)c2ccccc2C1=O)c1cnn(-c2ccccc2)c1C(F)(F)F	HEK293-A GFP-LC3B	LC3B puncta formation		22 h, together with: chloroquine, torin1		IC50	> 20000 nM
CCOC(=O)/C=C1\S/C(=N\N=C\c2cccc3cc4ccccc4nc23)N(CC(C)C)C1=O	PATU	cell proliferation, MTT		48 h		IC50	> 50000 nM
CC1(C)CC(=O)C2=C(C1)Oc1cc(O)ccc1C2c1c[nH]c2ccccc12 (stereo not shown)	3T3-L1 pre-adipocytes	cell viability, MTT		72 h		IC50	70.3 ± 1.04 µg/mL
C#CCOc1ccc(C(=O)c2ccc(NC(=O)C(=O)NCCc3ccc(OC)cc3)cc2)cc1	NCI-H2122	cell growth or viability				IC50	23 nM
N#Cc1c(N)nc2c(c1-c1ccccc1)Cc1cc(O)ccc1-2	HH	cell growth or viability, ATP luminescence				IC50	15200 nM
CN1C(=O)CS/C1=N\N=C\c1cccc2cc3ccccc3nc12	PATU	cell proliferation, MTT		48 h		IC50	30900 ± 6700 nM
COc1ccc(-c2c(C#N)sc(C(=O)NC3(O)C(=O)c4ccccc4C3=O)c2-c2ccc(OC)cc2)cc1	HEK293-A GFP-LC3B	LC3B puncta formation		22 h, together with: chloroquine, torin1		IC50	> 20000 nM
O=C(NCc1cc(F)cc(F)c1)[C@@]1(O)CCN(c2ccc3[nH]ccc3c2)C1=O	PAXF736	colony formation				IC50	140 nM
C=CC(=O)N1CCCC(n2c(=O)c3ncccc3n(Cc3ccc(Oc4ccccc4)cc3)c2=O)C1 (stereo not shown)	Granta-519	cell growth or viability, MTT		72 h		IC50	250 nM
C=CC(=O)Nc1cccc(Cn2ncc3cnc(Nc4cnn(CCOC)c4)nc32)c1	EPHB1 human	binding, KINOMEscan		100 nM	lower = stronger binding	percent of control	86%
Nc1ncc(-c2cc(-c3cnn(CC(F)(F)F)c3)ncc2F)nc1C(=O)NC1CNCC(F)C1 (stereo not shown)	EPHA1	KINOMEscan		1 µM	baseline: DMSO control	remaining binding	88%

SMILES	target or system	assay	system	setting	scale	endpoint	result
CCN(C(=O)c1cc(F)ccc1Oc1nncnc1N1CCC2(C1)CN([C@H](CCCN(C)CCOC)C(C)C)C2)C(C)C	MV4-11 (KMT2A-AF4, FLT3-ITD)	inhibitor, QuantiGene multiplex, measured: MEIS1 mRNA				IC50	38 ± 7 nM
CC1(C)CC(=O)C2=C(C1)Oc1ccc3ccccc3c1C2c1c(C(=O)O)[nH]c2ccccc12 (stereo not shown)	3T3-L1 pre-adipocytes	cell viability, MTT		72 h		IC50	74.6 ± 2.78 µg/mL
O=C(N/N=C/c1cc[n+](Cc2ccccc2)c2ccccc12)N/N=C/c1cc[n+](Cc2ccccc2)c2ccccc12	myc22 MYC G4-DNA parallel	FRET melting		1 µM, K1 buffer, DNA 0.2 µM		ΔTm	8.6 ± 0.4 °C
Cc1ccc([N+](=O)[O-])cc1S(=O)(=O)N(C)/N=C/c1cnc2ccc(Br)cn12	LOX IMVI	cell growth or viability				IC50	73 nM
O=C(NC1(O)C(=O)c2ccccc2C1=O)c1ccc(-c2csnn2)cc1	HEK293-A GFP-LC3B	LC3B puncta formation		22 h, together with: chloroquine, torin1		IC50	> 20000 nM
C=CCOCO[C@H](C(=O)NC[C@@H]1C[C@@H](OC)C(C)(C)[C@@H](C[C@@H](COC)OC)O1)[C@@]1(OC)CC(=C)[C@@H](C)[C@@H](C)O1	Renca	cell viability, sulforhodamine B		72 h, 37 °C, without H2O2		IC50	2460 ± 75 nM
N#Cc1c(N)nc2c(c1-c1ccc(CO)o1)Cc1cc(O)ccc1-2	HH	cell growth or viability, ATP luminescence				IC50	2400 nM
COc1ccc(N2C(=O)CS/C2=N\N=C\c2cccc3cc4ccccc4nc23)cc1	PATU	cell proliferation, MTT		48 h		IC50	> 50000 nM
Cn1ncc(-c2ccc3c(=O)[nH]nc(CN)c3c2)c1-c1c(F)c(Cl)cc(OC2CC2)c1C#N	PK-1 MTAP deleted	cell viability		240 h		IC50	7.1 nM
O=C1CS/C(=N\N=C\c2cccc3cc4ccccc4nc23)N1c1ccccc1	PATU	cell proliferation, MTT		48 h		IC50	16800 ± 2640 nM
COc1ccc2c(c1)C(n1nnc3ccccc31)C1=C(CCCC1=O)O2 (stereo not shown)	3T3-L1 pre-adipocytes	cell viability, MTT		72 h		IC50	> 100 µg/mL
C=CC(=O)N1CC2C(=O)N(CCN(C)C)c3c(c4cc(Cl)c(-c5c(O)cccc5F)nc4n(-c4c(C)ccnc4C(C)C)c3=O)N2CC1C (stereo not shown)	NCI-H2122	cell growth or viability				IC50	56.4 nM
CCOc1cncc(-c2ccc(NC(=O)C3(c4ccnc(NS(=O)(=O)C5CC5)n4)CCOCC3)nc2)n1	HH	cell growth or viability, ATP luminescence		72 h		IC50	2 nM
COc1cc2c(=O)oc3cc(OC(=O)c4ccc(Cl)cc4)ccc3c2c(OC)c1OC	HEK293-A GFP-LC3B	LC3B puncta formation		22 h, together with: chloroquine, torin1		IC50	> 20000 nM
CC(C)(C)c1cnc(CSc2cnc(NC(=O)C3CCN(C(=O)CCCCCCN4Cc5cc6c(cc5C4)C(=O)N(C4CCC(=O)NC4=O)C6=O)CC3)s2)o1 (stereo not shown)	A673	cell growth or viability, MTT				IC50	43.8 nM
CNS(=O)(=O)Nc1nccc(Cc2c(C)c3ccc(Oc4ncccc4F)cc3oc2=O)c1F	HT-3	cell viability		7 days		IC50	> 1000 nM
CCn1nc(Cl)c2c1-c1cnc(N)c(c1)O[C@H](C)c1cc(F)ccc1-c1nn(C)cc1C2	Ba/F3 EML4-ALK variant 3	cell viability				IC50	1.6 nM
CCOC(=O)c1ccc(NC(=O)Nc2ccc(C(F)(F)F)cc2)cc1	LAD2	degranulation				IC50	2770 nM
